Experimental data collected from several papers.
Parts stem from different laboratories: compare values within a part only. Positions count from the first letter of the parent shown.
Chain of UniProt P23946 (whole entry, looked up): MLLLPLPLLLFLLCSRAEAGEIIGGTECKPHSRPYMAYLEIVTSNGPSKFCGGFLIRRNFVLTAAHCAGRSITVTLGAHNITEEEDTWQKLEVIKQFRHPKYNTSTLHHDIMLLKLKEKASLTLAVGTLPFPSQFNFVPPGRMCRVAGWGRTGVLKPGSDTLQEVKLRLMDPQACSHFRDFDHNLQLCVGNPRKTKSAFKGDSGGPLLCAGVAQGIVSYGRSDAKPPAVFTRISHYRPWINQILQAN

Block 1
Target: UBE2W UBC core domain (UniProt Q96B02)
Method: yeast two-hybrid
Matrix: yeast
Notes: mostly zero background
Baseline: not given
Reading: higher = stronger interaction
B1: NFX1 RING domain (UniProt Q12986); chain IEQLTTEKYECMVCCELVRVTAPVWSCQSCYHVFHLNCIKKWARSPASQADGQSGWRCPACQNVSAHVPNTY
B2: ARIH2 RING domain (UniProt O95376); chain HVPTSHPPHHCAVCMQFVRKENLLSLACQHQFCRSCWEQHCSVLVKDGVGVGVSCMAQDCPLRTPEDFVF
B3: MARCHF1 RING domain (UniProt Q8TCQ1); chain TAPRSQSRLSVCPSTQDICRICHCEGDEESPLITPCRCTGTLRFVHQSCLHQWIKSSDTRCCELCKYDFIMETKLKPLRKWE
B4: VPS8 RING domain (UniProt Q8N3P4); chain TRGLNPKQDYCSICLQQYKRRQEMADEIIVFSCGHLYHSFCLQNKECTVEFEGQTRWTCYKCSSSNKVGKLSE
B5: RNF103 RING domain (UniProt O00237); chain WPADMLHCTECVVCLENFENGCLLMGLPCGHVFHQNCIVMWLAGGRHCCPVCRWPSYKKKQPY
B6: TRIM11 RING domain (UniProt Q96F44); chain LSTNLQEEATCAICLDYFTDPVMTDCGHNFCRECIRRCWGQPEGPYACPECRELSPQRNLRP
Target sequence (chain): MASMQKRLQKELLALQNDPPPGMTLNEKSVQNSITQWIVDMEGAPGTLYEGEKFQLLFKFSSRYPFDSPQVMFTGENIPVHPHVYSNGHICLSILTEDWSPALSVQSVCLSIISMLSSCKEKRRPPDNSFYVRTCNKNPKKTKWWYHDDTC
| Sequence | lacZ reporter activity |
| --- | --- |
| DDVLTKDAGECVICLEELLQGDTIARLPCLCIYHKSCIDSWFEVNRSCPEHPAD (ZNRF1 RING domain (UniProt Q8ND25)) | 0 |
| B1 (NFX1 RING domain) | 0 |
| LVKDFNPYITCYICKGYLIKPTTVTECLHTFCKTCIVQHFEDSNDCPRCGNQVHETNPLE (PCGF5 RING domain (UniProt Q86SE9)) | 0 |
| B2 (ARIH2 RING domain) | 0 |
| B3 (MARCHF1 RING domain) | 0 |
| B4 (VPS8 RING domain) | 0 |
| B5 (RNF103 RING domain) | 9630 |
| B6 (TRIM11 RING domain) | 0 |

Block 2
Target: CCND3, cyclin fold, Cln2 fusion (human)
Method: yeast growth competition, sequencing
Matrix: yeast
Notes: weak parent motif
Baseline: not given
Reading: higher = stronger binding
Starting sequence: viral docking peptide; YKVKRRLVFGADD
| Change | normalised enrichment score |
| --- | --- |
| YKGKRRLVFGADD [V3G] | -0.192 |
| YKVKRRWVFGADD [L7W] | -0.0462 |
| YKVKRRLVGGADD [F9G] | 0.249 |
| YKAKRRLVFGADD [V3A] | 0.75 |
| YKVKRRLEFGADD [V8E] | 0.519 |
| YKVCRRLVFGADD [K4C] | 0.832 |
| YKVKRRLVFMADD [G10M] | -0.0109 |
| YKVKRRMVFGADD [L7M] | 0.0907 |

Single results of other studies
| Compound | tested on | test | test system | conditions | scale | measurement | value |
| --- | --- | --- | --- | --- | --- | --- | --- |
| CCN(CC)CCCOC(=O)C(OC(C)C)(c1ccccc1)c1ccccc1 |  |  | human, microsomes or S9 | 2 µM, 0.5 h |  | remaining compound | 59.8% |
| COc1ccc(-c2c(Nc3ccccn3)[nH]c3c(C4=CCCCC4)c(-c4ccccc4)nn3c2=O)cc1 |  |  | patients with advanced malignancies | oral, dose not given, treatment-emergent adverse events |  | ALT increased incidence | 10% |
| CC(C)C[C@H](NC(=O)[C@@H](NC(=O)N[C@@H](Cc1ccccc1)C(=O)O)[C@@H]1CCN=C(N)N1)C(=O)N[C@H](C=O)Cc1ccccc1 | Chymase (CMA1, Homo sapiens, UniProt P23946) |  |  |  |  | IC50 | 14.3 nM |
| CC[C@]1(O)CC[C@H]2[C@@H]3CCC4=CCCC[C@@H]4[C@H]3CC[C@@]21C | Sarcocystis neurona | parasite growth |  | 10 µM, 96 h, second screen | baseline: untreated | log2 fold change | 0.42 |
